Measurements from different studies.
Lines come from different studies, so protocols differ. Values joined by “and” are separate records of one study, mostly repeats; a detail may differ. ± gives the spread as reported.

Structure (SMILES) | assay | test system | setting | how to read | measurement | value
CC(C)n1c(Nc2cccnc2)nc2cnc(Nc3ccc(N4CCN(C)CC4)cc3)nc21 |  | human, male, plasma | oral, dose not given, added: gemfibrozil | reference: without gemfibrozil | increase in Cmax | ~21%
CCOc1c(O)cc(Br)c2c1CN1CCc3cc(OCC(F)F)c(O)cc3[C@@H]1C2 |  | mouse liver S9 | 2 µM, pH 7.4 |  | scaled intrinsic clearance | 1040 mL/min/kg
CN(CC#N)C(=O)C[C@H](Nc1nc2ccccc2[nH]1)c1cccc(C(F)(F)F)c1 |  | human | intravenous infusion, 1 mg/kg, 5 mg/mL formulation |  | steady-state volume of distribution | 38.9 ± 7.99 L
O=C(Nc1cnccc1Cl)N1CCN(Cc2ccc3c(c2)OC(F)(F)O3)CC1 | multiple ascending dose | elderly men and women | 100 mg, treatment-emergent adverse events |  | injection site pain incidence | 0%
Cc1cc(/C=C/C#N)cc(C)c1Nc1ccnc(Nc2ccc(C#N)cc2)n1 |  | human patients, all-treated set | intramuscular, dose not given, long-acting injection, median |  | time to injection-site reaction resolution | 3 days
Cn1cc(-c2cn3nccc3c(-c3cnn([C@]4(CC#N)C[C@@H](C#N)C4)c3)n2)cn1 |  | healthy humans fasted, plasma | oral, 10 mg single dose, geometric mean |  | dose-normalised AUC(0-t) | 35.5 ng·h/mL/mg
O=C(CSc1nnc(-c2ccccc2O)n1-c1ccccc1)Nc1cccc(C(=O)O)c1 |  | octanol/buffer | pH 11, known kinase inactives set |  | logP | -1.65
O=C(COc1ccc(Cl)cc1)NC12CC(c3nnc([C@H]4C[C@@H](OC(F)(F)F)C4)o3)(C1)C2 |  | healthy human both sexes, plasma | oral, 260 mg once daily, day 14, mean |  | steady-state Ctrough | 13 µM
COc1cc(C=CC(=O)O)ccc1O[C@@H]1O[C@H](C(=O)O)[C@@H](O)[C@H](O)[C@H]1O |  | human, cerebrospinal fluid | concentration not given, median |  | CSF concentration | 13.2 nM
COc1cc(OC)c(NC(=O)CSc2nnc(-c3ccncc3)n2-c2ccccc2)cc1Cl |  | octanol/buffer | pH 11 |  | logP | 3.11
CC(C)(C(=O)N1CCOc2c(C#N)cncc2C1)C(F)F |  | human, both sexes, plasma | oral, 15 mg twice daily, multiple ascending dose | reference: day 14 over day 1 | accumulation ratio AUC(0-12h) | 1.45
CCc1cc(C(=O)NC)c2nccc(N3CCc4c(cc(Cn5ccnc5)cc4-c4cn(C)nc4C(F)(F)F)C3=O)c2c1 |  | Sprague Dawley rats | oral, 50 mg/kg once daily, 7 days |  | haematocrit | 45.4 ± 1.35%
N#Cc1ccc(C(c2ccc(C#N)cc2)n2cncn2)cc1 |  | human patients, tumour extracellular fluid | 12.5 mg daily |  | steady-state concentration | 1.42 ± 0.04 µmol/L
CCCCC1=NC2(CCCC2)C(=O)N1Cc1ccc(-c2ccccc2S(=O)(=O)Nc2noc(C)c2C)c(COCC)c1 |  | healthy adult volunteers, plasma | oral, 400 mg, single dose, fasted, crushed tablet |  | AUC(0-inf) | 83000 ng·h/mL
Cc1cc(-c2nccc3c2ccn3CC(=O)Nc2ccc(-c3cnccn3)cn2)ccn1 | item: Cmax | human, plasma | oral, 5 mg once daily | reference: day 16 over day 1 | accumulation ratio | 1.32
CCN1CCN(Cc2ccc(NC(=O)c3ccc(C)c(NC(=O)c4cncc(-c5cccs5)c4)c3)cc2C(F)(F)F)CC1 | LC-MS/MS | C57BL/6 mouse, plasma | intraperitoneal, 30 mg/kg single dose, 8 h |  | plasma concentration | 136 ng/mL and 135 ng/mL and 72 ng/mL
CCCn1cc(C)c2c(=O)[nH]c(-c3cc(S(=O)(=O)N4CCN(CC)CC4)ccc3OCC)nc21 |  | human | concentration not given |  | priapism incidence | 61.1%
Cc1nc2cccc(OCC(C)(C)C(=O)NC(C)C)c2c(N)c1C(=O)O |  | Sprague-Dawley rat, plasma | oral, 10 mg/kg, day 7, 7-day repeated dosing | reference: female over male | Cmax ratio female over male | 2.01 ± 0.75
COc1ccc([C@@H](O)c2cc(-c3ncnc4cc(N5CCOCC5)ccc34)c(F)cc2Cl)nn1 |  | locally advanced rectal cancer patients | 50 mg, added: capecitabine and radiotherapy |  | gastrointestinal disorder TEAE | 100%
CCNCCNC(=O)c1c(C)[nH]c(/C=C2\C(=O)Nc3ccc(F)cc32)c1C |  | human, serum | 37.5 mg maintenance dose |  | serum concentration | 14.8 ng/mL
CO[C@H]1C[C@@H]2CC[C@@H](C)[C@@](O)(O2)C(=O)C(=O)N2CCCC[C@H]2C(=O)O[C@H]([C@H](C)C[C@@H]2CC[C@@H](O)[C@H](OC)C2)CC(=O)[C@H](C)/C=C(\C)[C@@H](O)[C@@H](OC)C(=O)[C@H](C)C[C@H](C)/C=C/C=C/C=C/1C |  | healthy adult horses | oral, 0.06 mg/kg, 12 h |  | heart rate | 33.5 ± 1.9 beats/min

Excerpt of the above:
Structure (SMILES) | assay | test system | setting | how to read | measurement | value
O=C(CSc1nnc(-c2ccccc2O)n1-c1ccccc1)Nc1cccc(C(=O)O)c1 |  | octanol/buffer | pH 11, known kinase inactives set |  | logP | -1.65
CC(C)n1c(Nc2cccnc2)nc2cnc(Nc3ccc(N4CCN(C)CC4)cc3)nc21 |  | human, male, plasma | oral, dose not given, added: gemfibrozil | reference: without gemfibrozil | increase in Cmax | ~21%
CCCn1cc(C)c2c(=O)[nH]c(-c3cc(S(=O)(=O)N4CCN(CC)CC4)ccc3OCC)nc21 |  | human | concentration not given |  | priapism incidence | 61.1%
